Experimental data of several laboratories.
Each numbered part is a random draw from the data of one study; scales do not carry over between parts.
Chain of UniProt Q9NYY3 (whole entry, looked up): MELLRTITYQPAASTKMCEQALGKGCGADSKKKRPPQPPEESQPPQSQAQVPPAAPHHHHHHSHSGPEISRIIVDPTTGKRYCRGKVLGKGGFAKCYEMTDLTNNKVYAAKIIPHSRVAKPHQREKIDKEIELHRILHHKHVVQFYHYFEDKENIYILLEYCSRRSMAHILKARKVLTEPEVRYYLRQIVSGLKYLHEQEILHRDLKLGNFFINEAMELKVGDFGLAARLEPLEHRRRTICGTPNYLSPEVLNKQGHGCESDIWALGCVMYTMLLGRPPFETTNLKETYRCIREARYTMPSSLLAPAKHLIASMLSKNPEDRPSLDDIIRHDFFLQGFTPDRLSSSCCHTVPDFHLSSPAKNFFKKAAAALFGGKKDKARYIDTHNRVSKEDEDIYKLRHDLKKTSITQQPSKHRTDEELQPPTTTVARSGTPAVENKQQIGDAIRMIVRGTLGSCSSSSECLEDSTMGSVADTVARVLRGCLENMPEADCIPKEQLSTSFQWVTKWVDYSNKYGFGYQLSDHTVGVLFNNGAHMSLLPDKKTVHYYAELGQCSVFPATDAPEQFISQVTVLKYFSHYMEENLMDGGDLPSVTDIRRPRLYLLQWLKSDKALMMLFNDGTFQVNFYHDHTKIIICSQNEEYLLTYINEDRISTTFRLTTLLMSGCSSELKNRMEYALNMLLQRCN
Chain of UniProt P49759 (whole entry, looked up): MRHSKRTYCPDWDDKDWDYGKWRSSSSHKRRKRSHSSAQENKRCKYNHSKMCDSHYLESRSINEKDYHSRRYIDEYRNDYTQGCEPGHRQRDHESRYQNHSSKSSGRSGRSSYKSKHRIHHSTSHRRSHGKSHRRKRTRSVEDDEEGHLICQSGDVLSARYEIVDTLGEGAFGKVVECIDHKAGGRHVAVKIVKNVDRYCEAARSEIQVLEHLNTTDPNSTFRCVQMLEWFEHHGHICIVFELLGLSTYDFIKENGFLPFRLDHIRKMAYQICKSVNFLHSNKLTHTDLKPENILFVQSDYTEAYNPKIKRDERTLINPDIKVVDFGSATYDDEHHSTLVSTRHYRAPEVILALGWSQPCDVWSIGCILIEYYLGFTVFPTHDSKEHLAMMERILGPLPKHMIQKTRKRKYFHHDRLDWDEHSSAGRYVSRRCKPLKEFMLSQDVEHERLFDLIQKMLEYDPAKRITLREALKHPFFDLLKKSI
Chain of UniProt Q13153 (whole entry, looked up): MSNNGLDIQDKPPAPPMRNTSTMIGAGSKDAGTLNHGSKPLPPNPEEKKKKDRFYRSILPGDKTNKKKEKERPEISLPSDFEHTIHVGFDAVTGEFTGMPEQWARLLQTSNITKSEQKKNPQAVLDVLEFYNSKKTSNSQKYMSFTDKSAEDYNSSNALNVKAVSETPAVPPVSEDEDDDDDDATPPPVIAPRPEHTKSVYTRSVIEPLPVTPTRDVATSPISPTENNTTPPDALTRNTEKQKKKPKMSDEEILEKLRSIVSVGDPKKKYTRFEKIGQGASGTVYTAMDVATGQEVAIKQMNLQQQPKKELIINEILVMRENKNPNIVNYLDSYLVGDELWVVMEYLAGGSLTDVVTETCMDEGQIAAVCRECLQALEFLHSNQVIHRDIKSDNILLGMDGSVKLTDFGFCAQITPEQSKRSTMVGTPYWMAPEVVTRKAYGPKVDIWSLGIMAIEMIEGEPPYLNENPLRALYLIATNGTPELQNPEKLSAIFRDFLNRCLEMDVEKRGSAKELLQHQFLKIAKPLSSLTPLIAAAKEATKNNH
Chain of UniProt O00141 (whole entry, looked up): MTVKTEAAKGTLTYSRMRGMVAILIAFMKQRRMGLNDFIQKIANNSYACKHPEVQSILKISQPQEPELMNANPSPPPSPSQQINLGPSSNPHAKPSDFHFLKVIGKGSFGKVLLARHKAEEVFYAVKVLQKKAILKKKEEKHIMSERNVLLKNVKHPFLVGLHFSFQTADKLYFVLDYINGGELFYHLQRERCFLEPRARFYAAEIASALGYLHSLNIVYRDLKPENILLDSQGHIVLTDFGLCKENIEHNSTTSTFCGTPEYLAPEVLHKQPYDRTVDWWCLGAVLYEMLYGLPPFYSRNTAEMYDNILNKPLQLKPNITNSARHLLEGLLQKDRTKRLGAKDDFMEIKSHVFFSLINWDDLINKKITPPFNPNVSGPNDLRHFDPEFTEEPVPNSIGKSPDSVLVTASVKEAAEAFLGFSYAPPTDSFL
Chain of UniProt P17948 (whole entry, looked up): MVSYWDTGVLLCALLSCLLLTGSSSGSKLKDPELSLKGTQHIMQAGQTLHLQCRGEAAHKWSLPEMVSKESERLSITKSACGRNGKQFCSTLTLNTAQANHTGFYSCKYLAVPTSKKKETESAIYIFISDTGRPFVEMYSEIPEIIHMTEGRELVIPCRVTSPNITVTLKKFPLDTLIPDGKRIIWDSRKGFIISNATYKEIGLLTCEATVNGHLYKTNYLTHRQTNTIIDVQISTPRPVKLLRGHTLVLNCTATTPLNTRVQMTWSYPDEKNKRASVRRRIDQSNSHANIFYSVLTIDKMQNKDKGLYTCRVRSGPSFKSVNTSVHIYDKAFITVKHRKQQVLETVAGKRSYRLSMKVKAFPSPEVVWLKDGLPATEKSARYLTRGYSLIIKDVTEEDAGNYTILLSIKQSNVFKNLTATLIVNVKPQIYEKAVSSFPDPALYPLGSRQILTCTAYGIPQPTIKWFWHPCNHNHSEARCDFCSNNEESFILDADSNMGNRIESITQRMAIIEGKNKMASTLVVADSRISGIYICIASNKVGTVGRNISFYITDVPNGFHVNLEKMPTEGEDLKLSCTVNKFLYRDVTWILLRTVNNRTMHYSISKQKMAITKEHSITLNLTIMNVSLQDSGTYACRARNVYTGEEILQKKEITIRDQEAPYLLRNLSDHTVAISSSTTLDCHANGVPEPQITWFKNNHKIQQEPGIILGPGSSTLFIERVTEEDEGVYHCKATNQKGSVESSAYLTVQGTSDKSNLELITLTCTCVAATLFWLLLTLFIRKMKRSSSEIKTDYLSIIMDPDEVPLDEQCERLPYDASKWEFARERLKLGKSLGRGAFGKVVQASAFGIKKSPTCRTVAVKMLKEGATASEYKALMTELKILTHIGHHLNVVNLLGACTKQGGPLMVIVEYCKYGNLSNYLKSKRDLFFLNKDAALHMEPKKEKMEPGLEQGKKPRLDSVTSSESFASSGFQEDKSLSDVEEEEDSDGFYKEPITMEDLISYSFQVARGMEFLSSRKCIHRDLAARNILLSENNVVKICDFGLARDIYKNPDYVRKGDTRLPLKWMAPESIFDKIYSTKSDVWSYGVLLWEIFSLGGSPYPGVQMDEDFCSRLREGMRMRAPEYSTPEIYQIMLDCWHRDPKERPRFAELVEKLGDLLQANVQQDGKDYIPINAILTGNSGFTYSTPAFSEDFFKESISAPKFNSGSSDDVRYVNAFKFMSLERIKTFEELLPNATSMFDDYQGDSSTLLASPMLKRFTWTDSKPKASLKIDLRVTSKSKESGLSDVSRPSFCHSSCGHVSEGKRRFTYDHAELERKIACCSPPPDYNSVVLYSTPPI
Chain of UniProt P49760 (whole entry, looked up): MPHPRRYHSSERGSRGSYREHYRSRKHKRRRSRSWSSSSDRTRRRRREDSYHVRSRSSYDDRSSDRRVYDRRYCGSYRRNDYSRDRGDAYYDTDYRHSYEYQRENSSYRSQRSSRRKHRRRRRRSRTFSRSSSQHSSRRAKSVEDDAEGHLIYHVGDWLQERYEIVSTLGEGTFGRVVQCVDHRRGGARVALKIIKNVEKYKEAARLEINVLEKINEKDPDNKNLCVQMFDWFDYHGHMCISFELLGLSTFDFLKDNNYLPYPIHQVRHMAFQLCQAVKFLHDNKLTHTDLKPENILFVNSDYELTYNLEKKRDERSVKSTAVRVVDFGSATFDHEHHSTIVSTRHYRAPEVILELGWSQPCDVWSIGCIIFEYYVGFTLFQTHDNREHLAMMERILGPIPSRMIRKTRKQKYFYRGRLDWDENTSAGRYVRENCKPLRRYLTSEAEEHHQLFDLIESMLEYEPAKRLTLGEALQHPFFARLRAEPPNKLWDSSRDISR
Chain of UniProt P51956 (whole entry, looked up): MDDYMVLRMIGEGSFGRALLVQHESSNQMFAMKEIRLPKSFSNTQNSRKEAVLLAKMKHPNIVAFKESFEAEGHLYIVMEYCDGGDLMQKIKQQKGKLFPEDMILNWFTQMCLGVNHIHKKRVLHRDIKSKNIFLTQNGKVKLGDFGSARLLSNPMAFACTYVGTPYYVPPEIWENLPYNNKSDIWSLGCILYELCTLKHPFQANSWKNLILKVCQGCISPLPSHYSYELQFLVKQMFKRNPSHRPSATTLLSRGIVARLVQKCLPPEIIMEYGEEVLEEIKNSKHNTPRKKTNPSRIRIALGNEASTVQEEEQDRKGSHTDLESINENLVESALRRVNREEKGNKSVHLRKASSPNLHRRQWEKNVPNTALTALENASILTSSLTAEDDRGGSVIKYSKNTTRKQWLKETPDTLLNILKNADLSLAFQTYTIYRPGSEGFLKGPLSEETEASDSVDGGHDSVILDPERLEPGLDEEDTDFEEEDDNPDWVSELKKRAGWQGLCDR
Chain of UniProt P07947 (whole entry, looked up): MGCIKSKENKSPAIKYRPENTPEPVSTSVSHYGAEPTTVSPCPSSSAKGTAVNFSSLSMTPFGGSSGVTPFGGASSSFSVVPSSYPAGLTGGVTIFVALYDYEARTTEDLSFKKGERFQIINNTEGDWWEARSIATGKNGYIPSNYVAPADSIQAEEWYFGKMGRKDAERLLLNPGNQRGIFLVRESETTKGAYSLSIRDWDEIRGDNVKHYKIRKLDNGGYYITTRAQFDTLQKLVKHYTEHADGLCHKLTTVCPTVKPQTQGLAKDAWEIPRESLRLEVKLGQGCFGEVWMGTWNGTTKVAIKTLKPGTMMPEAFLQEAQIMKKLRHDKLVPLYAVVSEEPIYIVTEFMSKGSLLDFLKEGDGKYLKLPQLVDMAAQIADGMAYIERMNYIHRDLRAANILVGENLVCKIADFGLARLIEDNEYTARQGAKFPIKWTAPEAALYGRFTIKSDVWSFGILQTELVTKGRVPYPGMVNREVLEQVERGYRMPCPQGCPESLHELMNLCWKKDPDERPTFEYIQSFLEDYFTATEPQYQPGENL

Sample 1 — read-out: enzyme activity; mode: inhibitor; concentration: 0.5 µM; baseline: control; measurement: remaining activity
SMILES: COc1ccc(S(=O)(=O)N(CCO)c2ccccc2CN(C)CC=Cc2ccc(Cl)cc2)cc1
Calcium/calmodulin-dependent protein kinase type 1 (CAMK1, Homo sapiens, UniProt Q14012): 105%
Ephrin type-A receptor 2 (EPHA2, Homo sapiens, UniProt P29317): 104%
Dual specificity protein kinase CLK2 (CLK2, Homo sapiens, UniProt P49760): 96.7%
Tyrosine-protein kinase JAK1 (JAK1, Homo sapiens, UniProt P23458): 111%
Vascular endothelial growth factor receptor 1 (FLT1, Homo sapiens, UniProt P17948): 94.7%
Protein kinase C theta type (PRKCQ, Homo sapiens, UniProt Q04759): 110%
Tyrosine-protein kinase receptor TYRO3 (TYRO3, Homo sapiens, UniProt Q06418): 97.1%
Dual specificity protein kinase CLK1 (CLK1, Homo sapiens, UniProt P49759): 96.4%
Tyrosine-protein kinase Tec (TEC, Homo sapiens, UniProt P42680): 101%
Serine/threonine-protein kinase PAK 1 (PAK1, Homo sapiens, UniProt Q13153): 96%
Insulin-like growth factor 1 receptor (IGF1R, Homo sapiens, UniProt P08069): 103%
Cyclin-dependent kinase 2, with cyclin E (CDK2, Homo sapiens, UniProt P24941): 94%

Sample 2 — cell line: HaCaT; concentration: 100 µM; time: 18 h; measurement: viability
Cc1noc(NS(=O)(=O)c2ccc(N)cc2)c1C: 78%
CS(=O)(=O)c1ccc([C@@H](O)[C@@H](CO)NC(=O)C(Cl)Cl)cc1: 137%
O=c1cc[nH]c(=O)[nH]1: 107%
NCCCNCCSP(=O)(O)O: 112%
CC(C(=O)O)c1cccc(Oc2ccccc2)c1 (stereo not drawn): 90.3%
Cc1cc(=O)[nH]c(=S)[nH]1: 110%
CN(C)CCOC(C)(c1ccccc1)c1ccccn1 (stereo not drawn): 59%

Sample 3 — read-out: cell-free assay; method: competition with immobilised ligand; concentration: 0.1 µM; measurement: remaining binding
SMILES: Cn1cc(Cl)c2c(Oc3c(F)cc(Nc4cc(Cl)nc(N)n4)cc3F)ccnc21
Tyrosine-protein kinase Yes (YES1, Homo sapiens, UniProt P07947): 93%
Serine/threonine-protein kinase Nek3 (NEK3, Homo sapiens, UniProt P51956): 91%
Serine/threonine-protein kinase Sgk1 (SGK1, Homo sapiens, UniProt O00141): 80%
Tyrosine-protein kinase ABL1, phosphorylated (ABL1, Homo sapiens, UniProt P00519, Q252H): 94%
Serine/threonine-protein kinase 17A (STK17A, Homo sapiens, UniProt Q9UEE5): 94%
Serine/threonine-protein kinase PLK2 (PLK2, Homo sapiens, UniProt Q9NYY3): 83%
Mitogen-activated protein kinase kinase kinase 13 (MAP3K13, Homo sapiens, UniProt O43283): 99%
Tyrosine-protein kinase FRK (FRK, Homo sapiens, UniProt P42685): 81%
Ribosomal protein S6 kinase alpha-1, N-terminal kinase domain (RPS6KA1, Homo sapiens, UniProt Q15418): 86%
cAMP-dependent protein kinase catalytic subunit beta (PRKACB, Homo sapiens, UniProt P22694): 92%
Myosin light chain kinase (MYLK3, Homo sapiens, UniProt Q32MK0): 94%
Phosphatidylinositol 4-phosphate 3-kinase C2 domain-containing subunit beta (PIK3C2B, Homo sapiens, UniProt O00750): 83%
Epidermal growth factor receptor (EGFR, Homo sapiens, UniProt P00533, del746-750): 73%

Single results of other studies
CC(C)n1cnc(-c2ccc(F)cc2)c1-c1ncc(C(=O)Nc2ccc(N3CCN(C)CC3)cc2)[nH]1  patients with muscular weakness (human, idiopathic pulmonary fibrosis; 30 mg once daily, trial, treatment-emergent): 0%

Some of these lines once more (sample 1):
Dual specificity protein kinase CLK2 (CLK2, Homo sapiens, UniProt P49760): 96.7%
Calcium/calmodulin-dependent protein kinase type 1 (CAMK1, Homo sapiens, UniProt Q14012): 105%
Tyrosine-protein kinase receptor TYRO3 (TYRO3, Homo sapiens, UniProt Q06418): 97.1%
